Experimental data collected from several papers.
Every numbered part comes from another study and shows a few of its results, in no order.

Block 1 — observed: enzyme activity; mode: inhibitor; tested at: 20 µM
Target: Replicase polyprotein 1ab, polymerase (rep, Severe acute respiratory syndrome coronavirus 2, UniProt P0DTD1)
Compound | inhibition
Cc1nnc2n1-c1sc(CCC(=O)N3CCOCC3)cc1C(c1ccccc1Cl)=NC2 | -0.8%
COCC1=C(C(=O)O)N2C(=O)[C@@H](NC(=O)/C(=N\OC)c3csc(N)n3)[C@H]2SC1 | 4.08%
C[C@H](N)C(=O)N[C@@H](CCC(N)=O)C(=O)O | -7.09%
CC/C(=C(\c1ccc(O)cc1)c1ccc(OCCNC)cc1)c1ccccc1 | 6.31%
C[N+]1(CCCCC[N+]2(C)CCCC2)CCCC1 | -1.78%
CCOC(=O)c1ccc(C#Cc2ccc3c(c2)C(C)(C)CCS3)nc1 | -8.27%
OC[C@H]1NCC[C@@H](O)[C@@H]1O | -6.04%
Cc1ccc2c(=O)c3cccc(CC(=O)O)c3oc2c1C | 9.3%
CC(C)CC(N)=O | -5.68%
COC1=C[C@@H]2[C@@H]3Cc4ccc(OC)c(O)c4[C@]2(CCN3C)CC1=O | -3.11%
Cc1c(Cl)cccc1S(=O)(=O)Nc1nc(NCCc2ccccc2)nc2c1CN(Cc1ccccc1)CC2 | 14%
Cc1cc(C)c(CNC(=O)c2cc(-c3ccc(N4CCN(C)CC4)nc3)cc3c2c(C)cn3C(C)C)c(=O)[nH]1 | -1.04%
NC(=O)NS(=O)(=O)c1ccc(N)cc1 | 1.57%
O=[N+]([O-])c1cc(Cl)ccc1S(=O)(=O)c1ccccc1 | -2.49%
Nc1c(-c2cccc(C(F)(F)F)c2)nsc1C(=O)O | 0.54%
O=C1N[C@@H]2[C@@H](O)[C@@H](O)[C@H](O)[C@@H](CO)N2C1=O | -3.4%
CCn1c(-c2nonc2N)nc2c(C#CC(C)(C)O)ncc(OC[C@H]3CCCNC3)c21 | 1.62%
Cc1ccccc1C(=O)c1ccc(Nc2ccc(Br)cc2N)cc1Cl | 2.96%
O=C(O)CC(=O)C(=O)O | 3.39%
CCN1CCN(c2cc(-c3ccc(F)cc3)c3c(n2)CCCCCC3)CC1 | -4.29%
CN[C@H]1C[C@@H](N)[C@H](O)[C@@H](O[C@@H]2O[C@H](CO)[C@H](O)[C@@H]3OC4(O[C@H]23)O[C@H]([C@@H](N)CO)[C@H](O)[C@H](O)[C@H]4O)[C@@H]1O (stereo partly shown) | -2.52%
Cc1cc(O)ccc1Cl | 0.64%
Ic1cncc(OC[C@@H]2CCN2)c1 | 0.13%
O=C(O)CCc1nc2ccccc2[nH]1 | 1.57%
O=C(NC[C@H](O)CO)c1ccncc1Nc1ccc(I)cc1F | 2.57%

Block 2 — technique: RNA Bind-n-Seq; molecule type: RNA; medium: in vitro; tested at: not given; reference: input RNA pool; direction: higher = stronger binding
Target: RING finger protein unkempt homolog, zinc fingers 1-6, GST-SBP tag (UNK, Homo sapiens, UniProt Q9C0B0, residues 30-357)
Sequence of UniProt Q9C0B0 (30-357, looked up): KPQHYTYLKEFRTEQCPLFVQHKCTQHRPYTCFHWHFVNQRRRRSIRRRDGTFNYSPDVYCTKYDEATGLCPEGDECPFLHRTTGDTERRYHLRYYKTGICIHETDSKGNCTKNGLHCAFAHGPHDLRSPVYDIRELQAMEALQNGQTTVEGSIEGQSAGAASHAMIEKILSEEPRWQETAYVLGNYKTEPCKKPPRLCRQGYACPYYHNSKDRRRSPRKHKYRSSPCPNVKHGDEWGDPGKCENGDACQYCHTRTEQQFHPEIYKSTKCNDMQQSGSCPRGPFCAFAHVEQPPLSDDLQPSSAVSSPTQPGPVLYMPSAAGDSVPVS
Setting: RNA with constant flanks, human-mouse chimeric sites, ends assumed
Sequence | bound/input enrichment [ratio]
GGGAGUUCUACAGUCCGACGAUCUUUGUAUUUAUGCUAAGCACGCGUGCUGGUGGUCUGGGCAUCAAUCUUGCAACUGCUGAUGUAGUCAUUUUAUAUGACUCAGAUUGGAAUCCGCAAGUAGAUCUUCAGGCUAUGGACCGUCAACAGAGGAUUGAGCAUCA | 0.157
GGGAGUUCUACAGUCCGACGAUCAUGGAGAAGGAUUCUCUGCCUCGCUUUGUGCGCUCUGAAUUUUAUAAGGAGCUAAUCAAGUAGUCAUCUGGUCAGGCUUCCAAAAGUUCCUGUGAGUGUUGAGUUACAUCCUUUGUAGCACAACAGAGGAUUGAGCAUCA | 0.322
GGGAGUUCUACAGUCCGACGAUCCAGUCCCCGUGUCCCAGUGCAGGACGAUGUGAACAAAUCGAAGACAUGGACCCUCUAUUGUAGUUCUUGAUUCUCGAGUGCCAUUAUUAUUGUUUGUCUUUUUUUUUUUUUUUUUAAAGACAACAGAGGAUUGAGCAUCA | 1.52
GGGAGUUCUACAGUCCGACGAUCAAAGAACUACUGAGGCAAGGCAGCAAAUUUAGGAGAGAUGUAUCAACAAUAUUGAUAGAGUUAGGAUUCCAAAUUAAAAAAAAAACUAAGACAUUAUACAUCAACAAAGCCAAUGUGUGGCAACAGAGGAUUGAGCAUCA | 17.1
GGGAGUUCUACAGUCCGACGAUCAGCACAACCCCAGCAAAGCUAAGAAAUCCUUGUACAAGUGAACAAAACUGCACCAGCCCAUUUAGCUACAAAAAUGUGCUCAGUCUUACUGACAGAGGAGAGUUUUUCAAUGAACUUGUUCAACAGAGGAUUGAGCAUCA | 1.15
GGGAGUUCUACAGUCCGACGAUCAACGUGGAGUUGAGUUCCUUGGCCCGGCUUCCCAGCUUAAAUAAACUUCGAAAAUUGGAACUUAGUGACAAUAUAAUUUCUGGAGGCUUGGAAGUCCUGGCAGAGAAAUGUCCAAAUCUUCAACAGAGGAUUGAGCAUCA | 0.366
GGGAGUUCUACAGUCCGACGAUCCCACCAGGAUCCCAGAAACAUGACUCUUGCUGCCUACAAAGAGAAGAUGAAGGAGCUCCCGCUGGUGUCCUUGUUCUGCUCCUGCUUCCUGGCCGAUCCCCUGAAUAAGUCGUCCUACAACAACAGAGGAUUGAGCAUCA | 0.231
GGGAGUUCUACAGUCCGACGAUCGAUAAGAAAAGCUUGUUGGAGACCCGCUUGCAUGUCACUGGUAGAGAACUGAGGUCCCAAAUAGCUGAAACUUUCGGAUUUCAAGAAAAUUACAUCAAAAUUGUCAUAAAUAAGAAACAGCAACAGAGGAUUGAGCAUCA | 1.01

Block 3 — technique: competition protein-binding microarray; molecule type: double-stranded DNA, one strand shown; medium: in vitro; tested at: 2 µM; together with: Pho4 competitor, 0.05 µM; direction: higher = stronger binding
Target: Centromere-binding protein 1, full length, His-tagged (CBF1, Saccharomyces cerevisiae, UniProt P17106, residues 1-351)
Sequence of UniProt P17106 (whole entry, looked up): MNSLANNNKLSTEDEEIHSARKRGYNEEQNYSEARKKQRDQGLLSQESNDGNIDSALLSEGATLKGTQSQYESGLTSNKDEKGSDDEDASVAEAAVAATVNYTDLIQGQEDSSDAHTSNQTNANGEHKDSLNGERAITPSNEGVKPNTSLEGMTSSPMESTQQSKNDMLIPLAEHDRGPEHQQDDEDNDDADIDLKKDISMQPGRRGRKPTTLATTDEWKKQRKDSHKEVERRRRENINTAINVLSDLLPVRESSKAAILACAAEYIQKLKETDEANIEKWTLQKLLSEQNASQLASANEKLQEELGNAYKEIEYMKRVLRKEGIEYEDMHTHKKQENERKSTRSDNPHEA
Setting: whole 60-bp probe, lowest competitor level
Sequence | fluorescence intensity [a.u.]
CGTCCTAGTGATTGGGCCGTGGGTGCCATGAGGAAGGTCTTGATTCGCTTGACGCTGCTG | 70.8
TCCAATGGTTCGAACCATGTGGAAGAAGATGCAGAAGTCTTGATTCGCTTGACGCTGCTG | 77
AAGAATTTTATATGGCTTGTGATGAGACTGACGTCCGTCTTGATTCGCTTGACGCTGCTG | 84.3
CTTTCCCGATCTTGAACTGTGGGTGTAGCACATTTGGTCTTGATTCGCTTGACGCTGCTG | 78.3
GTCTTGTCTCATTTTCACGTGCGGTTCCCCACTTCAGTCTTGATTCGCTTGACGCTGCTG | 552
CGGGGTTAAGTTTGTCCGGTGGGTGGCTTGCAGCAGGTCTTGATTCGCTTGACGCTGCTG | 73.2
CGGGGTTAAGTTTGACATGTGGGTGGCTTGCAGCAGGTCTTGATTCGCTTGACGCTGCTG | 84.2
TTTTGTTGTTATATTCACGTGCCAGTTTGCTTTTATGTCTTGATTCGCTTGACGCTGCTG | 1650

Block 4 — cell line: HEK-293T/ACE2; observed: pseudovirus infection; organism: VSV pseudotyped with SARS-CoV-2 spike; tested at: 10 µM; time: 16 h; reference: vehicle-treated
SMILES | GFP-positive cells [%]
CCN(C)C(=O)Oc1cccc([C@H](C)N(C)C)c1 | 63.7
Cc1ccnc2c1NC(=O)c1cccnc1N2C1CC1 | 66.4
Fc1ccc([C@@H]2CCNC[C@H]2COc2ccc3c(c2)OCO3)cc1 | 21

Block 5 — technique: RNA Bind-n-Seq; molecule type: RNA; medium: in vitro; tested at: 200 nM; setting: whole 134-nt RNA, ends assumed; together with: 150 mM KCl; reference: input library; direction: higher = stronger binding
Target: Ras GTPase-activating protein-binding protein 1, full length (G3BP1, Homo sapiens, UniProt Q13283)
Sequence of UniProt Q13283 (whole entry, looked up): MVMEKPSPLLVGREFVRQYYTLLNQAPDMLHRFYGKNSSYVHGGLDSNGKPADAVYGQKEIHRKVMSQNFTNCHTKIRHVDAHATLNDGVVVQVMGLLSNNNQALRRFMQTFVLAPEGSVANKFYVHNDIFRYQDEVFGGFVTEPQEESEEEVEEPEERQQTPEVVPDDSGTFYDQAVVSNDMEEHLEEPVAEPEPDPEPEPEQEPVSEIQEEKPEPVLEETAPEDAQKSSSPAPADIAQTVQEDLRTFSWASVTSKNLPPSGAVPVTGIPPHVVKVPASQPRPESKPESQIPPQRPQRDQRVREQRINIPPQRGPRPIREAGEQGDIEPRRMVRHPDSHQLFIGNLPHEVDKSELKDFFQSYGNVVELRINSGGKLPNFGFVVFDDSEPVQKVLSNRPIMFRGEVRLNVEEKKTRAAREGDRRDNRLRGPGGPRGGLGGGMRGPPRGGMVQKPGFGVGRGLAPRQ
Sequence | log2 enrichment
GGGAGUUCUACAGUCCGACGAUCUGGGAGGUGGAUUUUGUUUAUUUUUUUAGCUCAUUUCCAGGGGUGGGAAUUUUUUUUUACUAUGUGUCAUGAAUAAAGUUGUUUUUGAAAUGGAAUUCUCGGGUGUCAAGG | 0.115
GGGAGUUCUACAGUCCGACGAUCUAGGUGUUAUCUUCAGGAAGGCACACUGGACCUGCUAAAUUAACAAAUGGAAAGAAAGCGUAAGUACUUGAAGACGUUUACAACUUCAGAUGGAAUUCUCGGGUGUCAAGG | -1.77
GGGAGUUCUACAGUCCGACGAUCUUUGCUGAUUUCUGGCUGGCGGAUCAGCUGAACAGCCUGUCAGUGAUACUGAUGGACCUGGAAUAUAUGAUCUGCUUCUACAGUUUGGAGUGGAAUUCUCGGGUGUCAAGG | -2.45
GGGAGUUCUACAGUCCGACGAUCUGGGAGGUGGAUUUUGUUUAUUUUUUUAGCUCAUUUCCAGGGGUGGGAAUUUUUUUUUAAUAUGUGUCAUGAAUAACGUUGUUUUUGAAAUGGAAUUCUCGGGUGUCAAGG | 0.123
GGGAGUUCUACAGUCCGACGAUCAAGUCCUGUGCUACACAUCGUAUGUACCGAAUCGGGAAAAAAAGGGUGGGUUUGGGAAAGUAUUAUGUUACGCCGUUCGGAUCUGCACUUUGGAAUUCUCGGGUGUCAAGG | 0.236
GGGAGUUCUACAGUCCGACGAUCCCUCAAGUCCUGUGCUACACAUCGUAUGUACCGAAUCGGGGCGGGCGGGCGGGAAAGUAUUAUGUUACGCCGUUCGGAUCUGCACUUCCAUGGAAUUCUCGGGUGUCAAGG | 1.29
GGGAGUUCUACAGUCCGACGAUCUAACUUUAGAGGAGGAUCUGAUGGAUAUGGCAGUGGACGUGGAUUUGGGGAUGGCUAUAAUGGGCAUGGAGGAGGACCUGGAGGUGGCAAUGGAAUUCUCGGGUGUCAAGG | 0.326
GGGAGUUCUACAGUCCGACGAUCAAGUCCUGUGCUACACAUCGUAUGUACCGAAUCGGAAAAAGGAAAGGUUUUUUUGGAAAGUAUUAUGUUACGCCGUUCGGAUCUGCACUUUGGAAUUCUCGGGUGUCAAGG | -1.7

Block 6 — observed: enzyme activity; mode: inhibitor; tested at: 20 µM; setting: primary screen
Target: Replicase polyprotein 1ab, main protease (rep, Severe acute respiratory syndrome coronavirus 2, UniProt P0DTD1)
Compound | inhibition [%]
CN[C@H](CC(C)C)C(=O)N[C@H]1C(=O)N[C@@H](CC(N)=O)C(=O)N[C@H]2C(=O)N[C@H]3C(=O)N[C@H](C(=O)N[C@H](C(=O)O)c4cc(O)cc(O)c4-c4cc3ccc4O)[C@H](O[C@H]3C[C@](C)(N)[C@@H](O)[C@H](C)O3)c3ccc(c(Cl)c3)Oc3cc2cc(c3O[C@@H]2O[C@H](CO)[C@@H](O)[C@H](O)[C@H]2O[C@H]2C[C@](C)(NCc3ccc(-c4ccc(Cl)cc4)cc3)[C@@H](O)[C@H](C)O2)Oc2ccc(cc2Cl)[C@H]1O | 50.1
CC[N+](C)(CC)CCC[n+]1c(-c2ccccc2)c2cc(N)ccc2c2ccc(N)cc21 | 82.9
c1ccc2sc(SN3CCOCC3)nc2c1 | 99

For quick reference, copied from above (block 3):
Sequence | fluorescence intensity [a.u.]
TTTTGTTGTTATATTCACGTGCCAGTTTGCTTTTATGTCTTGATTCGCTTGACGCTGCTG | 1650
AAGAATTTTATATGGCTTGTGATGAGACTGACGTCCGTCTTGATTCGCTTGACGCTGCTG | 84.3
CGGGGTTAAGTTTGACATGTGGGTGGCTTGCAGCAGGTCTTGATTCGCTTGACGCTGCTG | 84.2
CGGGGTTAAGTTTGTCCGGTGGGTGGCTTGCAGCAGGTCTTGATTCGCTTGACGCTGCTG | 73.2
CGTCCTAGTGATTGGGCCGTGGGTGCCATGAGGAAGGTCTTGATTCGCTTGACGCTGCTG | 70.8
